Experimental data of several laboratories.
Lines come from different studies, so protocols differ.
Observed: binding
UniProt Q16539, sequence (whole entry, looked up): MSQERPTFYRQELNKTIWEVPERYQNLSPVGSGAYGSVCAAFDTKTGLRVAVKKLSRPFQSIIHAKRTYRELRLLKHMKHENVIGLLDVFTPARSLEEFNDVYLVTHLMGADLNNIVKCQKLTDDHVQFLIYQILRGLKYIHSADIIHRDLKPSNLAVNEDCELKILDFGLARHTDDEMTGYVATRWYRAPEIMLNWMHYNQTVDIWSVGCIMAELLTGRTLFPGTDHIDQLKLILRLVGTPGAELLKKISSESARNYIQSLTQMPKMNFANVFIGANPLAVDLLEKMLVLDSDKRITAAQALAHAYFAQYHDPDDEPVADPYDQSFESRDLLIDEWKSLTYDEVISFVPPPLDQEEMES
UniProt Q9Y243, sequence (whole entry, looked up): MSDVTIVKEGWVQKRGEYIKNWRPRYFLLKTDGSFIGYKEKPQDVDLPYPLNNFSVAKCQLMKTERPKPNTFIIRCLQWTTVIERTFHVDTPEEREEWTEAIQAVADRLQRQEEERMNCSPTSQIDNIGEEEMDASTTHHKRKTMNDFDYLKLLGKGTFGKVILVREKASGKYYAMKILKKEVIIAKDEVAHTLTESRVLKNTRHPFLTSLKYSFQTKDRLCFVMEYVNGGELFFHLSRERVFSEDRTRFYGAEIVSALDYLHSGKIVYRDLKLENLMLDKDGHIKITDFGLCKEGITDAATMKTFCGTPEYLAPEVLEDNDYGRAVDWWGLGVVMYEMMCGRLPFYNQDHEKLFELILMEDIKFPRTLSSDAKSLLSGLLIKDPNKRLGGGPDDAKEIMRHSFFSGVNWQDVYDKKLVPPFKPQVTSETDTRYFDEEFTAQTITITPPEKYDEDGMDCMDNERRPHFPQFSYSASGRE
UniProt Q56UN5, sequence (whole entry, looked up): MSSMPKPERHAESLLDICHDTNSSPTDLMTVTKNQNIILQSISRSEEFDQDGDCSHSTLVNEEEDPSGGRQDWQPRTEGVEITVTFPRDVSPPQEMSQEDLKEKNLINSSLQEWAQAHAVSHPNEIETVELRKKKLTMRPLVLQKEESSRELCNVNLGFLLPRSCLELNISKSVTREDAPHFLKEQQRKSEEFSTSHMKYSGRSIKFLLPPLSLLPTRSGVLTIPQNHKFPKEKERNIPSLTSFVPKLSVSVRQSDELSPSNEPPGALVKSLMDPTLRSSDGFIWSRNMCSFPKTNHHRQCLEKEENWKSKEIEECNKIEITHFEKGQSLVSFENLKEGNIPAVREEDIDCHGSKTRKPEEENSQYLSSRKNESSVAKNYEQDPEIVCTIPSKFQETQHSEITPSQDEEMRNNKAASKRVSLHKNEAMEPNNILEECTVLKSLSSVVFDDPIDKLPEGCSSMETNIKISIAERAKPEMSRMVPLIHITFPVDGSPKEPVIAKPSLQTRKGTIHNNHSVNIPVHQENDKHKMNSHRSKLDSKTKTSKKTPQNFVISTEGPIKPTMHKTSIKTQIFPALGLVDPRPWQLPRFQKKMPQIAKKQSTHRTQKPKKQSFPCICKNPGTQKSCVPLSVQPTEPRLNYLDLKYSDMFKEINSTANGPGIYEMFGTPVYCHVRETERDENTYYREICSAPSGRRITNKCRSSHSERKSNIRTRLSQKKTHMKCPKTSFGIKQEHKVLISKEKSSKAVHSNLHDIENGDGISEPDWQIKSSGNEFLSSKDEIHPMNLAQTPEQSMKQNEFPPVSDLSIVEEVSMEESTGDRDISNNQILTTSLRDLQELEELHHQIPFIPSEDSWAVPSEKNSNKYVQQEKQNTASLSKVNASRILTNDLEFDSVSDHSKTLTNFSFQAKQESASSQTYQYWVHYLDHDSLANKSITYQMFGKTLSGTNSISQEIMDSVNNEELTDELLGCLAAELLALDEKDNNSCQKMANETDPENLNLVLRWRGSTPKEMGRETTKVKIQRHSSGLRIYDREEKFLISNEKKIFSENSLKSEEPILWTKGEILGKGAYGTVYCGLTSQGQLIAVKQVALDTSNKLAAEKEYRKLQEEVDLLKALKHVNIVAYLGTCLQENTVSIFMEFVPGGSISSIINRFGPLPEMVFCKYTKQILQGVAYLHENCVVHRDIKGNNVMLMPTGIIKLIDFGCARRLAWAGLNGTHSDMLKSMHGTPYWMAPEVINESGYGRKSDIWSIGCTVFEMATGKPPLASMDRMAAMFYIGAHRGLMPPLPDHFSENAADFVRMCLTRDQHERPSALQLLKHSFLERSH
UniProt Q9BWU1, sequence (whole entry, looked up): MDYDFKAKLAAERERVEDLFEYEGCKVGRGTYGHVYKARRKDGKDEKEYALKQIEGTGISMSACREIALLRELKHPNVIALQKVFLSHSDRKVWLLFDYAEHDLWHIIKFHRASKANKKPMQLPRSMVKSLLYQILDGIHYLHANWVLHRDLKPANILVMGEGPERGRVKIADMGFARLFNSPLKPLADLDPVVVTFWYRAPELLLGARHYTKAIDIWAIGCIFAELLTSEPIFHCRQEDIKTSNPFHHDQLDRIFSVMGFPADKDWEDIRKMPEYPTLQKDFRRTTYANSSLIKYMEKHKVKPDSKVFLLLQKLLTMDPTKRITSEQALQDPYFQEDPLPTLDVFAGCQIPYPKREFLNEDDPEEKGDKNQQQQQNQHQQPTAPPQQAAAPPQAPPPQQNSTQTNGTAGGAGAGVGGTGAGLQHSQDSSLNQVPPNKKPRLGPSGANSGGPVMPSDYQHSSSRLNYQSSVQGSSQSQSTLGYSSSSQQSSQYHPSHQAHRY
UniProt P57059, sequence (whole entry, looked up): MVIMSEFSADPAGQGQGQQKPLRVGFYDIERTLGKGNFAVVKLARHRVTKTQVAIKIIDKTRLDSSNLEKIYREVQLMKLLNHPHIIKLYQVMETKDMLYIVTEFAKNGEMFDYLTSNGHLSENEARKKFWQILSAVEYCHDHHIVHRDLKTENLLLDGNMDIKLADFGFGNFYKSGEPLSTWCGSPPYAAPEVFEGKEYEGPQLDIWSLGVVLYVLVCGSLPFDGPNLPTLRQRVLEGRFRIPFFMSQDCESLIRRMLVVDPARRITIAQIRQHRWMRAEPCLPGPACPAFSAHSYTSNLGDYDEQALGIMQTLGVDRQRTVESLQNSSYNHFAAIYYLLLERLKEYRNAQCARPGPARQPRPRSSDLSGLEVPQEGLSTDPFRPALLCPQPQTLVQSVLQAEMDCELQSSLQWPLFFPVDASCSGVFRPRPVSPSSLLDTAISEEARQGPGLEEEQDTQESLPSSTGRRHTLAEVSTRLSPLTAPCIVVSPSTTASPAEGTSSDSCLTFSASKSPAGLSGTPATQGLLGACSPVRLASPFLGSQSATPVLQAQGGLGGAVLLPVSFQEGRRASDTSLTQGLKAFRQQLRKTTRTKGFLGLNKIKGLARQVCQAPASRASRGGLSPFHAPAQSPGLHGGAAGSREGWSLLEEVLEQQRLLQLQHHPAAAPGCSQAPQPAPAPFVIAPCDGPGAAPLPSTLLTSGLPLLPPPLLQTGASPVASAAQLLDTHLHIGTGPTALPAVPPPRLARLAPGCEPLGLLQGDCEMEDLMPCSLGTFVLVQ
UniProt Q12852, sequence (whole entry, looked up): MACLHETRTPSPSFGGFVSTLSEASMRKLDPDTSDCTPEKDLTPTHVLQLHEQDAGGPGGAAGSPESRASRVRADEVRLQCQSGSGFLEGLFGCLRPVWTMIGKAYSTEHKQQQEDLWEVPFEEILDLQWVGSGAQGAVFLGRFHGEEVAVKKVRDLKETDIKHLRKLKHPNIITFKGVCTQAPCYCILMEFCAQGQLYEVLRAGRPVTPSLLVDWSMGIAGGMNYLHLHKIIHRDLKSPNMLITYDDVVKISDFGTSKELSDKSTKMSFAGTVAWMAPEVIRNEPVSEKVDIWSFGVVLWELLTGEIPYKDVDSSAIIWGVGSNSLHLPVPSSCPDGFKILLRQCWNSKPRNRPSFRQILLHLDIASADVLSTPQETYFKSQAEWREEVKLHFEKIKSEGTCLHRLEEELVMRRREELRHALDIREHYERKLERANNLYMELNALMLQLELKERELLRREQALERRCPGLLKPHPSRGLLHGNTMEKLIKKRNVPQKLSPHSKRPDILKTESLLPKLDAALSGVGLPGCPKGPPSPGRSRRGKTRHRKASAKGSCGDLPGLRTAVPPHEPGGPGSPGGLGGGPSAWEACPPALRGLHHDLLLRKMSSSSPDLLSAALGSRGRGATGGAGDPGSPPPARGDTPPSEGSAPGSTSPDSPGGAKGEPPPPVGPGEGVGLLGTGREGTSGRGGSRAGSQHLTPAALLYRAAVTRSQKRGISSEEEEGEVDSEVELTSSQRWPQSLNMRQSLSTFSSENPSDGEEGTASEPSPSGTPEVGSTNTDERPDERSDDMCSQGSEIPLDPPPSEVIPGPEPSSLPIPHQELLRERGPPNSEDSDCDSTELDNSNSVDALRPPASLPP
UniProt Q13882, sequence (whole entry, looked up): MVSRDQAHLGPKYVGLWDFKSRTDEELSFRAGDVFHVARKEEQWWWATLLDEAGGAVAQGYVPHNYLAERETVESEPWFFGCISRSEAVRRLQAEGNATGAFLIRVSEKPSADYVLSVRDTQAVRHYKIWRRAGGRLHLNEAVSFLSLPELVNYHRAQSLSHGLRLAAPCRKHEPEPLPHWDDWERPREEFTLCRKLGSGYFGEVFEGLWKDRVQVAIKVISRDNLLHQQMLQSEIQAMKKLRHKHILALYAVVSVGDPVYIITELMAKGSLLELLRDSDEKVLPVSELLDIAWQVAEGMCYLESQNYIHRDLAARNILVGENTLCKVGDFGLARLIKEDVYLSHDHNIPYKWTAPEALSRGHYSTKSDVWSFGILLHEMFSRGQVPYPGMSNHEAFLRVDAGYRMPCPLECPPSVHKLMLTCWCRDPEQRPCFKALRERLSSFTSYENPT

For C=CC(=O)N1CCC(COCC(=O)N2CCN(c3nc(-c4cnc(N)nc4C(F)F)nc(N4CCOC[C@@H]4C)n3)CC2)CC1, the remaining binding was 1.2% (Phosphatidylinositol 4,5-bisphosphate 3-kinase catalytic subunit alpha isoform (PIK3CA, Homo sapiens, UniProt P42336, E542K); competition with immobilised ligand; 1 µM).
CCCCC(=O)Nc1ccc(-c2ccc3ncn(CCC)c(=O)c3c2)cn1 has a remaining binding of 100% (Mitogen-activated protein kinase kinase kinase 12 (MAP3K12, Homo sapiens, UniProt Q12852); competition with immobilised ligand; 0.5 µM).
C1=C/COCc2cc(ccc2OCCN2CCCC2)Nc2nccc(n2)-c2cccc(c2)COC/1 has a remaining binding of 100% (RAC-gamma serine/threonine-protein kinase (AKT3, Homo sapiens, UniProt Q9Y243); 0.1 µM).
With N[C@H]1CCN(c2nccc(-c3cnn4ncccc34)n2)C1 the remaining binding was 100% (Serine/threonine-protein kinase MRCK gamma (CDC42BPG, Homo sapiens, UniProt Q6DT37); 1 µM).
With COc1ccc2oc(-c3ccc4nc(N)oc4c3)c/c(=N\c3ccccc3NC(=O)CCN)c2c1 the remaining binding was 101% (Protein-tyrosine kinase 6 (PTK6, Homo sapiens, UniProt Q13882); 1 µM).
With CN(CCCC(F)(F)F)c1nccc(-c2cnn3ncccc23)n1 the remaining binding was 100% (Cyclin-dependent kinase 19 (CDK19, Homo sapiens, UniProt Q9BWU1); 1 µM).
For Cc1cc([C@@H](C)Nc2ccccc2C(=O)O)c2nc(N3CCC(F)(F)CC3)c(C#N)c(=O)n2c1, the remaining binding was 82% (Mitogen-activated protein kinase 14 (MAPK14, Homo sapiens, UniProt Q16539); competition with immobilised ligand; 1 µM).
F[C@@H]1CCN(c2nccc(-c3cnn4ncccc34)n2)C1 gave a remaining binding of 100% (Serine/threonine-protein kinase SIK1 (SIK1, Homo sapiens, UniProt P57059); 1 µM).
With FC(F)(F)Oc1cccc(-c2cnc3ccc(-c4ccncc4)nn23)c1 the remaining binding was 12% (Mitogen-activated protein kinase kinase kinase 19 (MAP3K19, Homo sapiens, UniProt Q56UN5); competition with immobilised ligand; 5 µM).

Some of these lines once more:
With FC(F)(F)Oc1cccc(-c2cnc3ccc(-c4ccncc4)nn23)c1 the remaining binding was 12% (Mitogen-activated protein kinase kinase kinase 19 (MAP3K19, Homo sapiens, UniProt Q56UN5); competition with immobilised ligand; 5 µM).
